Results from different studies.
Lines come from different studies, so protocols differ. ± gives the spread as reported.
Cell line: HeLa

Compound	test	setting	how to read	measurement	result
O=C(/C=C/c1ccccc1)Oc1ccc2c(c1)O/C(=C\C=C\c1ccccc1)C2=O	–	concentration not given, together with: rapamycin 3 µM 4 h	–	autophagosome formation	inhibited
CC(C)(C)c1cc2c(O)c(c1)Cc1cc(C(C)(C)C)cc(c1OCC(=O)Nc1ccncc1)Cc1cc(C(C)(C)C)cc(c1O)Cc1cc(C(C)(C)C)cc(c1OCC(=O)Nc1ccncc1)COC2	cell growth or viability, MTT	15 µM, 72 h	–	inhibition	39%
[Cl][Pd-2]1([Cl])[N+](=Cc2ccc[nH]2)Cc2cccc[n+]21	MTT	100 µg/mL, 24 h	–	viability reduction	> 80%
S=c1n(-c2ccccc2)c2c3ccccc3nc3[n+]2[n]1[Ir-3]12([S]3)([c]3ccccc3-c3sc4ccccc4[n+]31)[c]1ccccc1-c1sc3ccccc3[n+]12	–	–	relative to: IC50 dark over IC50 light	phototoxicity index	> 8330
CC(C)CCOc1cc(C[n+]2cn(CCC(C)C)c3ccccc32)c(OCCC(C)C)c2ccccc12	AP1 reporter	5 µM	–	reporter activity	decreased
CC1=[N+]2N=C(c3ccccc3)[O][Pd-2]2([Cl])[O+]=C2Oc3ccccc3C=C21 (centres unmarked)	flow cytometry	IC50, 24 h	–	G0/G1 phase cells	46.5%
O=[N+]([O-])c1ccc(NC2=N[N+](=Cc3cccs3)[Pt-]([Cl])([Cl])[S]2)cc1	altered cell morphology, microscopy	confluent cultures	–	minimal cytotoxic concentration	> 100 µM
CO.Cc1ccc2c(Cl)cc(Cl)c([O-])c2n1.Cc1ccc2c(Cl)cc(Cl)c([O-])c2n1.[Co+2].c1ccc2nc3c4cccnc4c4ncccc4c3nc2c1	flow cytometry	0.80 nM, 24 h	–	apoptotic cells	95.7%
[Cl][Pd-]1([Cl])[S]C(Nc2ccccc2)=N[N+]1=Cc1cccs1	altered cell morphology, microscopy	confluent cultures	–	minimal cytotoxic concentration	> 100 µM
COc1cc2c(=O)c(-c3ccc4c(c3)OCO4)coc2c2c1OC(C)(C)C=C2	annexin V/PI flow cytometry	2.5 µM, 48 h	–	apoptotic cells	18%
Cc1ccc2oc(=O)c(-c3nc4cnccc4[nH]3)cc2c1	cell growth or viability	72 h	–	EC50	1.49 µM
Cc1cc(/C=C2\CN(C(C)C)C/C(=C\c3cc(C)c(O)c(C)c3)C2=O)cc(C)c1O	annexin V/PI flow cytometry	2.5 µM, 24 h	–	apoptotic cells	11.3 ± 2.25%
CCc1ccc(C2=C3C(C)=CC(C)=[N+]3[B-](F)(F)n3c(C)cc(C)c32)cc1	confocal microscopy	concentration not given, 1 h, 37 °C, together with: Lipi-Blue 500 nM	–	Pearson's correlation coefficient	0.97
N=C(N)NCCC[C@@H]1NC(=O)[C@H](CCCCN)NC(=O)[C@@H](Cc2ccc(O)cc2)NC(=O)[C@H](CC(=O)O)NC(=O)CNC1=O	MTT	48 h	–	TGI	> 100 µM
O=c1c(/C=N/NC(=S)N/N=C/c2cc(Cl)ccc2O)coc2ccccc12	Western blot, refers to: phospho-ERK1/2	0.1 µM, 24 h	–	reduction in ERK1/2 phosphorylation	~10%
CNC(=O)c1c(C)oc2cc(Oc3ncnc4cc(OC)c(OCCCCCCC(=O)NO)cc34)ccc12	PI staining flow cytometry	3 µM, 48 h	–	cells in G2 phase	23.4%
C=C1C(=O)OC2C=C(C)CCC=C(C(=O)OC(C)C(C)(O)C(=O)OC3C(OC(C)=O)C(C(=O)OC)=CCCC(C)=CC4OC(=O)C(=C)C43)CC(OC(=O)C(C)=CC)C12 (centres unmarked)	–	3 µM, 24 h	relative to: untreated	caspase-8 activity	2.42 fold

For quick reference, copied from above:
Compound	test	setting	how to read	measurement	result
O=C(/C=C/c1ccccc1)Oc1ccc2c(c1)O/C(=C\C=C\c1ccccc1)C2=O	–	concentration not given, together with: rapamycin 3 µM 4 h	–	autophagosome formation	inhibited
